Published values gathered from unrelated publications.
Each line is one published result; not all experiments were run side by side. ± marks the error that the study gave.

Substance = CCN1C(=CC=CC=CC2=[N+](CCCCCC(=O)NCCCC[C@H](NC(=O)CN3CCN(CC(=O)O)CCN(CC(=O)O)CCN(CC(=O)O)CC3)C(=O)NCC(=O)NCC(=O)N[C@@H](Cc3ccc(O)cc3)C(=O)NCC(=O)N[C@H]3CSSC[C@@H]4NC(=O)CNC(=O)[C@H](C)NC(=O)[C@H](CC(C)C)NC(=O)[C@@H]5CSSC[C@@H](C(=O)NCC(N)=O)NC(=O)[C@H](Cc6ccccc6)NC(=O)CNC(=O)[C@H](CC(N)=O)NC(=O)[C@@H]6CCCN6C(=O)CNC(=O)[C@H](CSSC[C@H](NC(=O)[C@H](CO)NC(=O)[C@H]([C@@H](C)O)NC(=O)[C@@H]6CCCN6C(=O)[C@H](C)NC(=O)[C@H](Cc6c[nH]c7ccccc67)NC(=O)[C@H](CC(=O)O)NC(=O)CNC(=O)[C@H](CCCNC(=N)N)NC(=O)CNC(=O)[C@H](CCC(N)=O)NC(=O)[C@@H]6CCCN6C3=O)C(=O)N[C@@H](CO)C(=O)N[C@@H](CCC(N)=O)C(=O)N[C@@H](CC(=O)O)C(=O)N[C@@H](CO)C(=O)N[C@@H](CC(=O)O)C(=O)N5)NC(=O)[C@H](C(C)C)NC4=O)c3ccc4c(S(=O)(=O)[O-])cc(S(=O)(=O)O)cc4c3C2(C)C)C(C)(C)c2c1ccc1c(S(=O)(=O)O)cc(S(=O)(=O)O)cc21 (single isomer, unassigned) [copper-64 labelled]; test system = nude mouse, U-87 MG xenograft, tumour; conditions = intravenous, 100 µCi, 0.5 nmol, 1 h; endpoint = tissue uptake; value = 3.24 ± 0.87 %ID/g
Substance = Cc1ccccc1NC(=O)Nc1ccc(CC(=O)N[C@@H](CCCCNC(=O)/C=C/c2cccnc2)C(=O)N[C@@H](CCCC(=O)O)C(=O)NC2(C(=O)NCCOCCOCCOCCOCC(=O)N[C@@H](CCCCNC(=S)Nc3ccc(C[C@H]4CN(CC(=O)O)CCN(CC(=O)O)CCN4CC(=O)O)cc3)C(N)=O)CCCCC2)cc1 [gallium-68 labelled]; test = radio-HPLC; test system = human serum; conditions = 2 h, 37 °C; endpoint = 68Ga release; value = < 5%
Substance = COc1cccc2c1C(=O)c1c(O)c3c(c(O)c1C2=O)C[C@@](O)(C(=O)CO)C[C@@H]3O[C@H]1C[C@H](NC(=O)[C@@H]2CCCN2C(=O)CNC(=O)[C@H](CC(C)C)NC(=O)[C@H](C)NC(=O)CP(=O)(O)O)[C@H](O)[C@H](C)O1; test system = mouse, E0771 tumour-bearing, tumor; conditions = intravenous, 92 µmol/kg; endpoint = terminal half-life; value = 2.6 h
Substance = melittin; test = isothermal titration calorimetry; test system = POPC/POPG LUVs 75:25%; conditions = 100 µM, pH 7.0, 50 °C; endpoint = partitioning enthalpy; value = -15.6 kcal/mol
Substance = COc1cccc2c1C(=O)c1c(O)c3c(c(O)c1C2=O)C[C@@](O)(C(=O)CO)C[C@@H]3O[C@H]1C[C@H](NC(=O)[C@H](CC(C)C)NC(=O)[C@H](C)NC(=O)[C@H](CC(C)C)NC(=O)CCNC(=O)CCC(=O)O)[C@H](O)[C@H](C)O1; test system = mouse, E0771 tumour-bearing, plasma; conditions = intravenous, 92 µmol/kg; endpoint = Cmax; value = 243 µM
Substance = N=C(N)NCCC[C@@H]1NC(=O)[C@H](CCCCNC(=O)CNC(=O)CNC(=O)CNC(=O)CC[C@H](NC(=O)CCOCCOCCOCCOCCNC(=O)c2ccc(NN)nc2)C(=O)NCC(=O)NCC(=O)NCC(=O)NCCCC[C@@H]2NC(=O)[C@@H](Cc3ccccc3)NC(=O)[C@H](CC(=O)O)NC(=O)CNC(=O)[C@H](CCCNC(=N)N)NC2=O)NC(=O)[C@@H](Cc2ccccc2)NC(=O)[C@H](CC(=O)O)NC(=O)CNC1=O [technetium-99m labelled]; test = γ-counting; test system = female athymic nude mice, U-87 MG xenograft, eyes; conditions = intravenous, 2 h; endpoint = tissue uptake; value = 1.22 ± 0.02 %ID/g
Substance = CC[C@H](C)[C@H](NC(=O)[C@H](CCC(N)=O)NC(=O)[C@@H](NC(=O)CNC(=O)[C@H](CSSCCCC(=O)O[C@]1(CC)C(=O)OCc2c1cc1n(c2=O)Cc2cc3ccccc3nc2-1)NC(C)=O)C(C)C)C(=O)N[C@H](C(=O)N[C@@H](Cc1ccc(O)cc1)C(=O)N[C@@H](CCCCN)C(=O)N[C@@H](CCCCN)C(N)=O)C(C)C; test = fluorescence quenching; test system = nanostructures; conditions = 2 min; endpoint = critical dissociation concentration; value = ~207 nM
Substance = N=C(N)NCCC[C@@H]1NC(=O)[C@H](CCCCNC(=O)[C@H](CC(=O)O)NC(=O)[C@H](CC(=O)O)NC(=O)[C@H](CC(=O)O)NC(=O)CC[C@H](NC(=O)CCOCCOCCOCCOCCNC(=O)c2ccc(NN)nc2)C(=O)N[C@@H](CC(=O)O)C(=O)N[C@@H](CC(=O)O)C(=O)N[C@@H](CC(=O)O)C(=O)NCCCC[C@@H]2NC(=O)[C@@H](Cc3ccccc3)NC(=O)[C@H](CC(=O)O)NC(=O)CNC(=O)[C@H](CCCNC(=N)N)NC2=O)NC(=O)[C@@H](Cc2ccccc2)NC(=O)[C@H](CC(=O)O)NC(=O)CNC1=O [technetium-99m labelled]; test = γ-counting; test system = female athymic nude mice, U-87 MG xenograft, liver; conditions = intravenous, 1 h; endpoint = tissue uptake; value = 3.61 ± 0.14 %ID/g
Substance = CC(C)C[C@@H]1NC(=O)[C@@H]2CSSC[C@@H](C(=O)NCC(N)=O)NC(=O)[C@H](Cc3ccccc3)NC(=O)CNC(=O)[C@H](CC(N)=O)NC(=O)[C@@H]3CCCN3C(=O)CNC(=O)[C@@H]3CSSC[C@H](NC(=O)[C@H]([C@@H](C)O)NC(=O)[C@H](CC(C)C)NC(=O)[C@@H]4CCCN4C(=O)[C@@H]4CCCN4C(=O)[C@H](CC(N)=O)NC(=O)[C@H](CC(=O)O)NC(=O)CNC(=O)[C@H](CCCNC(=N)N)NC(=O)[C@@H]4CCCN4C(=O)[C@H](CCCNC(=N)N)NC(=O)[C@@H]4CCCN4C(=O)[C@@H](NC(=O)CNC(=O)CN4CCN(CC(=O)O)CCN(CC(=O)O)CCN(CC(=O)O)CC4)CSSC[C@H](NC(=O)CNC(=O)[C@H](C)NC1=O)C(=O)N[C@@H](C(C)C)C(=O)N3)C(=O)N[C@@H](CO)C(=O)N[C@@H](CCC(N)=O)C(=O)N[C@@H](CC(=O)O)C(=O)N[C@@H](CO)C(=O)N[C@@H](CC(=O)O)C(=O)N2 [copper-64 labelled]; test = PET/CT; test system = CCSP-rtTA TetO-MYC TetO-KrasG12D mouse, lung tumour; conditions = intravenous, 60 min; endpoint = tissue uptake; value = 1.76 %ID/g
Substance = CCCCCCCCCCCCCCCCCCSC1CC(=O)N(CCC(=O)NCCOCCOCCOCCOCCOCCOCCOCCOCCOCCOCCOCCOCCOCCOCCOCCOCCOCCOCCOCCOCCOCCOCCOCCOCCC(=O)NC(COCCC(=O)NCCOCCOCCOCCOCCC(=O)NCCCC[C@@H](NC(=O)CNC(=O)[C@@H](CC(C)C)NC(=O)[C@@H](CCC(=O)O)NC(=O)[C@H]2CSSC[C@@H](NC(=O)[C@H]3CCCN3C(=O)[C@@H](Cc3c[nH]cn3)NC(C)=O)C(=O)N[C@H](CC(=O)O)C(=O)N[C@H](Cc3ccc(O)cc3)C(=O)N3CCC[C@@H]3C(=O)N[C@H](CCC(=O)O)C(=O)N[C@H](Cc3c[nH]c4ccccc34)C(=O)N[C@H](CCC(N)=O)C(=O)N[C@H](Cc3c[nH]c4ccccc34)C(=O)N[C@H](CC(C)C)C(=O)N2)C(N)=O)(COCCC(=O)NCCOCCOCCOCCOCCC(=O)NCCCC[C@@H](NC(=O)CNC(=O)[C@@H](CC(C)C)NC(=O)[C@@H](CCC(=O)O)NC(=O)[C@H]2CSSC[C@@H](NC(=O)[C@H]3CCCN3C(=O)[C@@H](Cc3c[nH]cn3)NC(C)=O)C(=O)N[C@H](CC(=O)O)C(=O)N[C@H](Cc3ccc(O)cc3)C(=O)N3CCC[C@@H]3C(=O)N[C@H](CCC(=O)O)C(=O)N[C@H](Cc3c[nH]c4ccccc34)C(=O)N[C@H](CCC(N)=O)C(=O)N[C@H](Cc3c[nH]c4ccccc34)C(=O)N[C@H](CC(C)C)C(=O)N2)C(N)=O)COCCC(=O)NCCOCCOCCOCCOCCC(=O)NCCCC[C@@H](NC(=O)CNC(=O)[C@@H](CC(C)C)NC(=O)[C@@H](CCC(=O)O)NC(=O)[C@H]2CSSC[C@@H](NC(=O)[C@H]3CCCN3C(=O)[C@@H](Cc3c[nH]cn3)NC(C)=O)C(=O)N[C@H](CC(=O)O)C(=O)N[C@H](Cc3ccc(O)cc3)C(=O)N3CCC[C@@H]3C(=O)N[C@H](CCC(=O)O)C(=O)N[C@H](Cc3c[nH]c4ccccc34)C(=O)N[C@H](CCC(N)=O)C(=O)N[C@H](Cc3c[nH]c4ccccc34)C(=O)N[C@H](CC(C)C)C(=O)N2)C(N)=O)C1=O (stereo partly drawn); test system = Sprague Dawley rat, plasma; conditions = intravenous, 1.0 mg/kg, median, together with: Palm-PIE12-trimer 1.2 mg/kg; endpoint = AUC(0-inf); value = 0.76 µM·h
Substance = CSCC[C@H](NC(=O)[C@H](CC(C)C)NC(=O)[C@H](Cc1cnc[nH]1)NC(=O)CNC(=O)[C@@H](NC(=O)[C@H](C)NC(=O)[C@H](Cc1c[nH]c2ccccc12)NC(=O)[C@H](CCC(N)=O)NC(=O)c1ccc(NC(=O)CN2CCN(CC(=O)O)CCN(CC(=O)O)CCN(CC(=O)O)CC2)cc1)C(C)C)C(N)=O; test system = CF-1 mouse, urine and bladder; conditions = intravenous, 185 kBq, 1 h; endpoint = excretion; value = 68.4 ± 2.15%
Substance = Cc1ccccc1NC(=O)Nc1ccc(CC(=O)N[C@@H](CCCCNC(=O)/C=C/c2cccnc2)C(=O)N[C@@H](CCCC(=O)O)C(=O)NC2(C(=O)NCCOCCOCCNC(=O)CCC(=O)NCCOCCOCCNC(=O)CCC(=O)N[C@@H](CCCCNC(=O)CN3CCCN4CCN(CCCN(CP(=O)(O)O)CC4)CC3)C(N)=O)CCCCC2)cc1 [copper-64 labelled]; test = PET/CT; test system = C57BL/6 mice, B16-F10 tumour; conditions = intravenous, 2 h, together with: LLP2A 100 µg blocking; endpoint = tumour to background ratio; value = 8.2 ± 0.8
